Measurements gathered from unrelated publications.
Protocols differ between the studies behind these lines. “And” joins repeats or separate records; there may be more than shown. ± gives the spread as reported.
ATRX F284Y/K251R: Transcriptional regulator ATRX (ATRX, Homo sapiens, UniProt P46100, F284Y/K251R)
HTR1A: 5-hydroxytryptamine receptor 1A (HTR1A, Homo sapiens, UniProt P08908)
YTH domain-containing protein 1: YTH domain-containing protein 1 (Homo sapiens, UniProt Q96MU7)
Nuclear receptor subfamily 2 group C member 2 ligand-binding domain: Nuclear receptor subfamily 2 group C member 2, ligand-binding domain (Homo sapiens, UniProt P49116)

| Structure (SMILES) | target | test | test system | conditions | scale | endpoint | value |
| --- | --- | --- | --- | --- | --- | --- | --- |
| O=C(/C=C\n1cnc(-c2cc(C(F)(F)F)cc(C(F)(F)F)c2)n1)NNc1cnccn1 | Exportin-1 (XPO1, Homo sapiens, UniProt O14980) | nuclear export, high content imaging | HeLa Kyoto reporter | 0.32 µM, 2 h |  | cells with nuclear reporter | 55% and 54.4% |
| O=C(COP(=O)(O)O)[C@@H](O)[C@H](O)[C@H](O)COP(=O)(O)O | Small ribosomal subunit protein eS7 (Homo sapiens, UniProt P62081) | thermal proteome profiling, refers to: RPS7 | HepG2 cell lysate | concentration not given, 57 over 37 °C, mean | baseline: compound over control | thermal stability ratio | 0.624 |
| C[C@H](N)C(=O)N[C@@H](C)C(=O)N[C@H](C(=O)N[C@@H](CCCCN)C(=O)N[C@@H](CCC(N)=O)C(=O)N[C@H](C(=O)N[C@@H](C)C(=O)N[C@@H](CCCNC(=N)N)C(=O)N[C@@H](CCCCN)C(=O)N[C@@H](CO)C(=O)O)[C@@H](C)O)[C@@H](C)O | ATRX F284Y/K251R | isothermal titration calorimetry |  | concentration not given, pH 7.5, 25.0 °C |  | binding enthalpy | -4.47 kcal/mol |
| CC[C@@H]1[C@H](F)C(=O)N[C@@H]1COc1nccc2cc(C(N)=O)c(OC)cc12 | MAP/microtubule affinity-regulating kinase 4 (MARK4, Homo sapiens, UniProt Q96L34) | ATP-site probe binding, ActivX profiling | THP-1 cell lysate | 0.04 mM, Lys2 site |  | inhibition | 15.9% |
| CC1=C(/C=C/C(C)=C/C=C/C(C)=C/C=O)C(C)(C)CCC1 | Rhodopsin, I189A/S144C (RHO, Bos taurus, UniProt P02699, I189A/S144F) | retinal entry, Alexa488 FRET | lipid bicelles | 28 °C, I189A mutant | baseline: wild-type rhodopsin | relative kon | 1.51 ± 0.28 |
| Nc1[nH]nc2nnc(-c3c(-c4ccccc4)nn4ccccc34)cc12 | Mitogen-activated protein kinase 3 (MAPK3, Homo sapiens, UniProt P27361) | ADP-Glo |  | 100 nM, together with: MBP substrate |  | kinase activity | 69.7% and 87.1% and 113% |
| NC/C(=C\F)COc1cccc(Cn2c(=S)[nH]c(=O)c3[nH]cnc32)c1 | Myeloperoxidase (MPO, Homo sapiens, UniProt P05164) | H2O2 consumption, inhibitor, H2O2 electrode |  | 0.028 µM, 0.2 s |  | H2O2 concentration | -0.173 µM |
| O=C1OC(c2ccccc2)=N/C1=C\c1ccc(O)cc1 | Pancreatic alpha-amylase (Homo sapiens, UniProt P04746) | inhibitor, Lineweaver-Burk |  | 100 ppm, together with: starch substrate |  | Km | 1.4 mM |
| Nc1ncnc2c1ncn2[C@@H]1O[C@H](COP(=O)(O)CP(=O)(O)OP(=O)(O)O)[C@@H](O)[C@H]1O | P2X purinoceptor 1 (P2RX1, Homo sapiens, UniProt P51575, D170A) | saturation binding |  | 13 nM |  | specific binding | 82 corrected cpm and 78.5 corrected cpm and 62 corrected cpm |
| COc1cc(Nc2ncc3c(n2)-c2ccc(Cl)cc2C(c2c(F)cccc2OC)=NC3)ccc1C(=O)O | PRKCA | kinase activity |  | 1 µM |  | remaining activity | 115% |
| Cc1ccc(OC[C@H]2CN(CCN3CCc4ccccc43)CCO2)cn1 | HTR1A | radioligand binding |  | concentration not given, together with: [3H]8-OH-DPAT |  | inhibition | 49% |
| C[S+](CC[C@H](N)C(=O)O)C[C@H]1O[C@@H](n2cnc3c(N)ncnc32)[C@H](O)[C@@H]1O (stereo partly shown) | O-methyltransferase (Sorghum bicolor, UniProt A0A1B6PFV1) | biolayer interferometry |  | together with: saturating PTR |  | cooperativity factor σ | 0.81 |
| Cc1cccc(N2CC(C(=O)O)CC2=O)c1 (stereo not shown) | YTH domain-containing protein 1 | binding, affinity selection mass spectrometry |  |  | baseline: other proteins in batch | log fold enrichment | -0.102 |
| C[C@@H]1C[C@H]2[C@@H]3CCC4=CC(=O)C=C[C@]4(C)[C@@]3(Cl)[C@@H](O)C[C@]2(C)[C@@]1(OC(=O)c1ccco1)C(=O)CCl | Nuclear receptor subfamily 2 group C member 2 ligand-binding domain | SPR imaging |  | 600 nM |  | koff | 4.89e-07 s⁻¹ |
| O=C(O)[C@@H]1CCCN1c1ncnc2[nH]cnc12 (racemic) | F-box only protein 22, with SKP1 (Homo sapiens, UniProt Q8NEZ5) | binding, affinity selection mass spectrometry |  |  | baseline: other proteins in batch | log fold enrichment | -0.0605 |
| Cl.O=C1Cc2cc(CCN3CCN(c4nsc5ccccc45)CC3)c(Cl)cc2N1 | Nuclear receptor subfamily 2 group C member 2 ligand-binding domain | SPR imaging |  | 600 nM |  | koff | 1.99e-07 s⁻¹ |
| Nc1nc2c(ncn2[C@@H]2O[C@H](COP(=O)(O)O)[C@@H](O)[C@H]2O)c(=O)[nH]1 | GUK1 (Homo sapiens, UniProt Q16774) | enzyme activity, NADH-coupled |  | 500 µM, together with: KCl 50 mM |  | reaction velocity | 0.126 µM/s and 0.119 µM/s and 0.112 µM/s |

| Structure (SMILES) | target | test | test system | conditions | scale | endpoint | value |
| --- | --- | --- | --- | --- | --- | --- | --- |
| CC[C@H](C)[C@@H]1NC(=O)[C@H]([C@@H](C)CC)NC(=O)[C@@H](Cc2ccc(O)cc2)NC(=O)CSC[C@@H](C(N)=O)NC(=O)[C@H](CCCNC(=N)N)NC(=O)[C@H](CCCCN)NC(=O)[C@H](CC(C)C)NC(=O)[C@H](CO)NC(=O)[C@H](CO)NC(=O)[C@H](CC(C)C)NC(=O)[C@H](Cc2ccccc2)NC(=O)[C@H](C(C)C)NC(=O)CNC(=O)[C@H](CC(C)C)NC(=O)[C@@H]2CCCN2C(=O)[C@H]([C@@H](C)O)NC(=O)[C@H](CC(=O)O)NC1=O | VPS35/VPS29 (Homo sapiens, UniProt Q96QK1+Q9UBQ0) | binding, ITC |  | 25 °C, heterodimer |  | -TΔS | 0.9 ± 0.3 kcal/mol |
| Nc1ncnc2c1ncn2[C@@H]1O[C@H](COP(=O)(O)OP(=O)(O)OP(=O)(O)O)[C@@H](O)[C@H]1O | GUK1 (Homo sapiens, UniProt Q16774, S13A) | substrate, NADH-coupled |  |  |  | Km | 1.09 mM |
| CCCCC[S+]([O-])c1n[nH]c(N)n1 (stereo not shown) | YTH domain-containing protein 1 | binding, affinity selection mass spectrometry |  |  | baseline: other proteins in batch | fold enrichment | 0.547 |
| CCCC[C@H]1CN(c2cccc(Cl)c2)C(=O)CN1Cc1cncn1Cc1ccc(Cl)cc1 | Cryptococcus neoformans farnesyltransferase | enzyme activity, inhibitor, fluorescence |  | together with: 1 µM FPP, 0.5 µM dansylated peptide |  | IC50 | 1600 ± 800 nM |
| O=C(O)c1cc2c(c3nc4c(O)cccc4nc13)O[C@@H]1[C@H](O)c3nc4cccc(O)c4nc3C[C@H]21 | Eukaryotic translation initiation factor 4E, with 4E-BP1 (EIF4E, Homo sapiens, UniProt P06730) | click chemistry enzyme-linked |  |  |  | Hill slope | ~-1 |
| C[C@H](N)C(=O)N[C@@H](CCCNC(=N)N)C(=O)N[C@H](C(=O)N[C@@H](CCCCN)C(=O)N[C@@H](CCC(N)=O)C(=O)N[C@H](C(=O)N[C@@H](C)C(=O)N[C@@H](CCCNC(=N)N)C(=O)N[C@@H](C)C(=O)N[C@@H](CO)C(=O)O)[C@@H](C)O)[C@@H](C)O | ATRX F284Y/K251R | isothermal titration calorimetry |  | concentration not given, pH 7.5, 25.0 °C |  | binding entropy | 10.2 cal/mol/K |
| Nc1[nH]c(=O)ncc1F | Nuclear receptor subfamily 2 group C member 2 ligand-binding domain | SPR imaging |  | 600 nM |  | koff | 4.1e-05 s⁻¹ |
| O=C(O)C1CCCNC1 (stereo not shown) | Sodium- and chloride-dependent taurine transporter (SLC6A6, Homo sapiens, UniProt P31641, G62A) | binding, microscale thermophoresis |  | 125 µM, room temperature, together with: 50 nM labelled protein | higher = more binding | normalised MST signal | 0.0087 |
| O=c1nc(SCc2cc(F)cc(C(F)(F)F)c2)nc(SCc2ccc3nc(Cl)ccc3c2)[nH]1 | DNA topoisomerase 2-alpha (TOP2A, Homo sapiens, UniProt P11388) | DNA cleavage |  | 15.6 µM, replicate 2 |  | linear DNA | 0% |
| Cc1n[nH]c2ccc(-c3cc(OC[C@@H](N)Cc4ccccc4)cnc3-c3ccoc3)cc12 | Serine/threonine-protein kinase CBK1 (CBK1, Candida albicans, UniProt Q5AP53) | kinase binding, competitor, MIB/MS competition, refers to: CBK1 | Candida albicans cell lysate | 1 µM | baseline: DMSO | log2 fold change | -0.0808 |
| CC1(C)Cc2c(sc(NC(=O)c3ccn[nH]3)c2C(N)=O)C(C)(C)O1 | Cystic fibrosis transmembrane conductance regulator (CFTR, Homo sapiens, UniProt P13569, F312A) | single-channel patch clamp |  | 20 µM, together with: ATP 2 mM |  | open probability | 0.79 ± 0.03 |
| COc1cc(/C=C/C(=O)N2CCN(CC(=O)N3CCCC3)CC2)cc(OC)c1OC.O=C(O)/C=C\C(=O)O | Nuclear receptor subfamily 2 group C member 2 ligand-binding domain | SPR imaging |  | 600 nM |  | koff | 4.96e-07 s⁻¹ |
| COc1cccc(OC[C@@H]2CN(CCN3CCc4ccccc43)CCO2)c1 | HTR1A | radioligand binding |  | concentration not given, together with: [3H]8-OH-DPAT |  | inhibition | 80.6% |
| Cc1ccc(N2CC(C(N)=O)CC2=O)cc1 (stereo not shown) | YTH domain-containing protein 1 | binding, affinity selection mass spectrometry |  |  | baseline: other proteins in batch | fold enrichment | 1 |
| Nc1ncnc2c1ncn2[C@@H]1O[C@H](COP(=O)(O)OP(=O)(O)OP(=O)(O)O)[C@@H](O)[C@H]1O | ATP-sensitive inward rectifier potassium channel 1 (Rattus norvegicus, UniProt P35560) | channel activity, inhibitor, inside-out patch clamp |  | together with: ADP 0.2 mM |  | concentration for full inhibition | 1.8 to 2.2 mM |
| CCS(=O)(=O)N1CC(CC#N)(n2cc(-c3ncnc4[nH]ccc34)cn2)C1 | Alpha-1-acid glycoprotein 1 (ORM1, Homo sapiens, UniProt P02763) | fluorescence quenching |  | 308 K |  | Gibbs free energy | -25.9 kJ/mol |
| Nc1nc2c(ncn2[C@@H]2O[C@@H]3COP(=O)(O)O[C@H]3[C@H]2O)c(=O)[nH]1 | Cone cGMP-gated channel (Morone saxatilis, UniProt Q3I0N1+Q3I0N2) | channel current, agonist, suction electrode | cone outer segments | together with: 0 µM Ca2+ |  | Hill coefficient | 2.01 ± 0.3 |

A few entries again:
| Structure (SMILES) | target | test | test system | conditions | scale | endpoint | value |
| --- | --- | --- | --- | --- | --- | --- | --- |
| O=C(O)[C@@H]1CCCN1c1ncnc2[nH]cnc12 (racemic) | F-box only protein 22, with SKP1 (Homo sapiens, UniProt Q8NEZ5) | binding, affinity selection mass spectrometry |  |  | baseline: other proteins in batch | log fold enrichment | -0.0605 |
| COc1cc(/C=C/C(=O)N2CCN(CC(=O)N3CCCC3)CC2)cc(OC)c1OC.O=C(O)/C=C\C(=O)O | Nuclear receptor subfamily 2 group C member 2 ligand-binding domain | SPR imaging |  | 600 nM |  | koff | 4.96e-07 s⁻¹ |
| Nc1[nH]nc2nnc(-c3c(-c4ccccc4)nn4ccccc34)cc12 | Mitogen-activated protein kinase 3 (MAPK3, Homo sapiens, UniProt P27361) | ADP-Glo |  | 100 nM, together with: MBP substrate |  | kinase activity | 69.7% and 87.1% and 113% |
| C[S+](CC[C@H](N)C(=O)O)C[C@H]1O[C@@H](n2cnc3c(N)ncnc32)[C@H](O)[C@@H]1O (stereo partly shown) | O-methyltransferase (Sorghum bicolor, UniProt A0A1B6PFV1) | biolayer interferometry |  | together with: saturating PTR |  | cooperativity factor σ | 0.81 |
